Assay results collected from several papers.
Each line is one published result; not all experiments were run side by side.
T1: POU, POU domain (Salpingoeca helianthica); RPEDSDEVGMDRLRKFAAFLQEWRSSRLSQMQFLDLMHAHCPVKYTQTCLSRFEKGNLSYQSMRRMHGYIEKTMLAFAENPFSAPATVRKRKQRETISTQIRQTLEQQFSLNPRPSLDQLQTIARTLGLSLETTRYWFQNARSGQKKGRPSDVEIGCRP
UniProt Q92985, sequence (whole entry, unmodified, looked up): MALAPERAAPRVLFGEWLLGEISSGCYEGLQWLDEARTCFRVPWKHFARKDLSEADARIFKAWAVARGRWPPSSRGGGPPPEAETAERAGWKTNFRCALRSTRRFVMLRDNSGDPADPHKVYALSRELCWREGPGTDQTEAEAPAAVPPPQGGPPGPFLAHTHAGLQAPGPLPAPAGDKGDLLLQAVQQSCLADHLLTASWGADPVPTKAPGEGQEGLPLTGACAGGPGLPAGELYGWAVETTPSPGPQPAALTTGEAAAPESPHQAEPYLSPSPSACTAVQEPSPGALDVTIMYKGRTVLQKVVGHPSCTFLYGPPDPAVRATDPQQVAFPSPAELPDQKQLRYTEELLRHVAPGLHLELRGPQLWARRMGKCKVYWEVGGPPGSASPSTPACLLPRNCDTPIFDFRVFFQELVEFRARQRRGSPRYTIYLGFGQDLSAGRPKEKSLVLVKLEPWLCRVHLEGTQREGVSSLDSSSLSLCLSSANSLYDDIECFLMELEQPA
UniProt P17106, sequence (whole entry, looked up): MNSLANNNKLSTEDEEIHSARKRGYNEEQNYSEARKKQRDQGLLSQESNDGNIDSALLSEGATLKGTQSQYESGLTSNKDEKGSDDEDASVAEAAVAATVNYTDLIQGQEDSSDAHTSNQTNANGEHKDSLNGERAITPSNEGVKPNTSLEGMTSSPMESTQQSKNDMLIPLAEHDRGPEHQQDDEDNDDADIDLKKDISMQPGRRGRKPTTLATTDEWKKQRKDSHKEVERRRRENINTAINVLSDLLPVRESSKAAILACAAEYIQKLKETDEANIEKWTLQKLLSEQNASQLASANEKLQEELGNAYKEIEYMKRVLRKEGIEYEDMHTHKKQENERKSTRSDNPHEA

Molecule | target | test | test system | setting | how to read | endpoint | result
GGTTGGTGTGGTTGG (2'F-ANA at 1 2 3 6 7 8 10 12) | Prothrombin, mature alpha-thrombin (F2, Homo sapiens, UniProt P00734) | aptamer microarray, sandwich | DNA with 2'F-ANA, in vitro | 200 nM, whole 15-mer aptamer, many near background, added: Cy3 exosite-II aptamer, 400 nM | higher = stronger binding | mean fluorescence intensity | 92.3 a.u.
GCCTAGCACTCAGATTTCCACTTTCTACTGTGCTAGGTCTTGATTCGCTTGACGCTGCTG | Interferon regulatory factor 7, full length, phosphomimetic (IRF7, Homo sapiens, UniProt Q92985, residues 1-503, S101K/S471D/S472D/S475D/S476D/S477D/S483D/S484D/S487D) | protein-binding microarray | double-stranded DNA, one strand shown, in vitro | 250 nM, 60-bp whole probe, added: salmon DNA 0.4 mg/ml | relative to: random background probes, higher = stronger binding | log fluorescence | 1.2 z-score
CTAAGAAA | Histone acetyltransferase KAT6A, winged helix 2, GST fusion (KAT6A, Homo sapiens, UniProt Q92794, residues 85-181) | protein binding microarray | double-stranded DNA, one strand shown, in vitro | not given, 8-mer, flanks averaged, mean of 2 arrays, mostly near background | relative to: not given, higher = stronger binding | E-score | 0.166
GAGTCGTCTCGTCAGCACTCGTTAATCCGTAGAGCACTCAGGTC | T1, POU, POU domain (Salpingoeca helianthica) | Spec-seq | double-stranded DNA, one strand shown, in vitro | not given, whole probe, mean of replicates | relative to: not given, lower = stronger binding | relative binding energy | -1.02 ln ratio
CACTCCGA | Histone acetyltransferase KAT6A, both winged helices, GST fusion (KAT6A, Homo sapiens, UniProt Q92794, residues 1-181) | protein binding microarray | double-stranded DNA, one strand shown, in vitro | not given, 8-mer, flanks averaged, mean of 2 arrays, mostly near background | relative to: not given, higher = stronger binding | E-score | 0.0344
PhoQ, residues 284 288 289 292 302 303 SLSVQF | PhoP, residues 12 14 15 18 19 FWNTL (Escherichia coli, UniProt P23836) | Sort-seq, measured: YFP reporter | E. coli | PhoQ-PhoP variant library, added: 10 µM Mg2+ | relative to: high Mg2+ state, higher = stronger signaling | fold induction | 9.76
GGGAGUUCUACAGUCCGACGAUCAAGUAACCAUAUGCUAUAAGCAUUUGAAUAUGUUUAAUUUUAUCAUAAUAGCAUCUGUAAAAGUACAUCUUACACAUUAUAUAGAGGGUUCUUGUUUGAAAUUUUCAGUUUGGAAUUCUCGGGUGCCAA | RNA binding protein fox-1 homolog 2, RRM domain, GST-SBP tag (RBFOX2, Homo sapiens, UniProt O43251-10, residues 100-194) | RNA Bind-n-Seq | RNA, in vitro | 365 nM, natural RNA segment, single round, ends assumed | relative to: no-protein control, higher = stronger binding | RBNS enrichment (R) | 1.39
TCCTCAGGGACCTCTCACGTGCCGAGTATCAGCCAGGTCTTGATTCGCTTGACGCTGCTG | Centromere-binding protein 1, full length, His-tagged (CBF1, Saccharomyces cerevisiae, UniProt P17106, residues 1-351) | competition protein-binding microarray | double-stranded DNA, one strand shown, in vitro | 2 µM, whole 60-bp probe, lowest competitor level, added: Pho4 competitor, 0.05 µM | higher = stronger binding | fluorescence intensity | 1500 a.u.

Repeated from above:
Molecule | target | test | test system | setting | how to read | endpoint | result
CTAAGAAA | Histone acetyltransferase KAT6A, winged helix 2, GST fusion (KAT6A, Homo sapiens, UniProt Q92794, residues 85-181) | protein binding microarray | double-stranded DNA, one strand shown, in vitro | not given, 8-mer, flanks averaged, mean of 2 arrays, mostly near background | relative to: not given, higher = stronger binding | E-score | 0.166
